Assay results of several laboratories.
Lines come from different studies, so protocols differ. Values joined by “and” are separate records of one study, mostly repeats; a detail may differ. Bridges are numbered along the chain shown (N, C = ends). Where no end group is shown, it is not given here.
Cell line: MCF7

| Substance | test | conditions | how to read | endpoint | value |
| --- | --- | --- | --- | --- | --- |
| O=[N+]([O-])c1ccc(N=NNc2cccc(O)c2)cc1 | cell growth or viability, LDH |  |  | IC50 | 1.51 µM |
| NNC(=O)Cn1c2ccccc2c2cn[nH]c(=O)c21 | RT-PCR, measured: mTOR | 5 µM, 48 h, normalised to β-actin | reference: untreated | fold change | 0.44 |
| COc1cc(/C=C\c2cccc(B(O)O)c2)cc(OC)c1OC | cell growth or viability, SRB | 48 h |  | IC50 | < 1 µM |
| C[C@H](NCCc1ccc(O)cc1)C(=O)c1ccc(OCc2ccccc2)cc1 | cell viability, MTT | 72 h |  | IC50 | 13.2 µM |
| FFPKVAGVAAKVLKKFCTISKKC (disulfide 17-23 (inferred)) (disulfide) | cell viability, MTT |  |  | IC50 | 7.19 µM |
| CCCCCc1cc(O)c(C/C=C(\C)CCC=C(C)C)c(O)c1 | cell growth or viability, MTT | 72 h |  | IC50 | 38.7 µM |
| CCCCCCCCCC(=O)N[C@@H](Cc1ccccc1)C(=O)N[C@H](C(=O)NCC(=O)N[C@H](C(=O)N[C@@H](CC(C)C)C(=O)N[C@H](C(=O)N1CCC[C@H]1C(=O)N[C@@H](CC(C)C)C(=O)N[C@@H](C)C(=O)N[C@@H](CC(C)C)C(=O)NCC(=O)N[C@@H](C)C(=O)N[C@@H](CC(C)C)C(=O)N[C@H](C(=O)N[C@@H](CCCCN)C(=O)N[C@@H](CC(C)C)C(=O)N[C@@H](Cc1ccccc1)C(=O)N[C@@H](CCCCN)C(N)=O)[C@@H](C)O)[C@@H](C)CC)[C@@H](C)O)[C@@H](C)CC | cell growth or viability, CCK-8 | 24 h |  | IC50 | 8.18 µM |
| Cn1nnc2c(C(N)=O)ncn2c1=O | cell growth or viability, LDH |  |  | IC50 | 0.77 µM |
| [Cl][Au].c1ccc(P(c2ccccc2)c2ccccc2)cc1 | cell growth or viability, resazurin | 72 h |  | EC50 | 3.57 µM and 3.6 µM |
| C=C(C)[C@@H]1CCC(C)=C[C@H]1c1c(O)cc(CCCCC)cc1O | cell growth or viability, MTT | 72 h |  | IC50 | 24.1 µM |
| CN[C@@H]1C[C@H]2O[C@@](C)([C@@H]1OC)n1c3ccccc3c3c4c(c5c6ccccc6n2c5c31)C(=O)NC4 | annexin V/PI flow cytometry | 2.5 µM, 24 h |  | necrotic cells | 7.23% |
| O=[N+]([O-])c1ccc(N=NNCCO)cc1 | cell growth or viability, LDH |  |  | IC50 | 6.14 µM |
| CC(C)[C@H](NC(=O)[C@H](C(C)C)N(C)C)C(=O)N(C)[C@H](C(=O)N1CCC[C@H]1C(=O)N1CCC[C@H]1C(=O)NC(C)(C)C)C(C)C | cell growth or viability | 48 h |  | IC50 | 0.15 µM |
| N=C(N)NCCC[C@H](NC(=O)CNC(=O)[C@@H](N)Cc1ccc(O)cc1)C(=O)N[C@@H](CCCCN)C(=O)N[C@@H](CCCCN)C(=O)N[C@@H](CCCNC(=N)N)C(=O)N[C@@H](CCCNC(=N)N)C(=O)N[C@@H](CCC(N)=O)C(=O)N[C@@H](CCCNC(=N)N)C(=O)N[C@@H](CCCNC(=N)N)C(=O)N[C@@H](CCCNC(=N)N)C(=O)N[C@@H](CCCNC(=N)N)C(=O)N[C@@H](CC(N)=O)C(=O)N[C@@H](CCC(N)=O)C(=O)N[C@@H](CCCCN)C(=O)N[C@@H](Cc1ccccc1)C(=O)N[C@@H](CCCCN)C(=O)N[C@@H](CS)C(=O)NCC(=O)N[C@@H](CCC(=O)O)C(=O)O |  | concentration not given, colony formation and migration |  | cell proliferation | inhibited |
